# Results of several laboratories.
# Lines come from different studies, so protocols differ. Numbers after ± are the reported error.
# Ppara F272I: Peroxisome proliferator-activated receptor alpha (Ppara, Mus musculus, UniProt P23204, F272I)
# Sequence of UniProt P23204 (whole entry, unmodified, looked up): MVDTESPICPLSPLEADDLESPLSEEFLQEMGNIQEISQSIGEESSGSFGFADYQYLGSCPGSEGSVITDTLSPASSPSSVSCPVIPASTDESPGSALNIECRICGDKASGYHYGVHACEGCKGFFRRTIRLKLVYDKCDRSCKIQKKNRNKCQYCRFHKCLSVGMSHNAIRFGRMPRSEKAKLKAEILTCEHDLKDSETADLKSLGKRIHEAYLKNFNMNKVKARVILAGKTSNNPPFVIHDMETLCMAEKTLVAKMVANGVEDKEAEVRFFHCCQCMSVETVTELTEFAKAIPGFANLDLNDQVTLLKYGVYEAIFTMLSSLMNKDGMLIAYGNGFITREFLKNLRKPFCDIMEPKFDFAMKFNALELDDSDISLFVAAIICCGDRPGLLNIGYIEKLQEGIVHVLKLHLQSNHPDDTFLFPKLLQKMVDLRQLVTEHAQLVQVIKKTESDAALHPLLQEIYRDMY
# APP Aβ aggregates: Amyloid-beta precursor protein, Aβ aggregates (APP, Homo sapiens, UniProt P05067)
# EZH1 in PRC2 complex: Histone-lysine N-methyltransferase EZH1, in PRC2 complex (EZH1, Homo sapiens, UniProt Q92800)
# Sequence of UniProt Q92800 (whole entry, looked up): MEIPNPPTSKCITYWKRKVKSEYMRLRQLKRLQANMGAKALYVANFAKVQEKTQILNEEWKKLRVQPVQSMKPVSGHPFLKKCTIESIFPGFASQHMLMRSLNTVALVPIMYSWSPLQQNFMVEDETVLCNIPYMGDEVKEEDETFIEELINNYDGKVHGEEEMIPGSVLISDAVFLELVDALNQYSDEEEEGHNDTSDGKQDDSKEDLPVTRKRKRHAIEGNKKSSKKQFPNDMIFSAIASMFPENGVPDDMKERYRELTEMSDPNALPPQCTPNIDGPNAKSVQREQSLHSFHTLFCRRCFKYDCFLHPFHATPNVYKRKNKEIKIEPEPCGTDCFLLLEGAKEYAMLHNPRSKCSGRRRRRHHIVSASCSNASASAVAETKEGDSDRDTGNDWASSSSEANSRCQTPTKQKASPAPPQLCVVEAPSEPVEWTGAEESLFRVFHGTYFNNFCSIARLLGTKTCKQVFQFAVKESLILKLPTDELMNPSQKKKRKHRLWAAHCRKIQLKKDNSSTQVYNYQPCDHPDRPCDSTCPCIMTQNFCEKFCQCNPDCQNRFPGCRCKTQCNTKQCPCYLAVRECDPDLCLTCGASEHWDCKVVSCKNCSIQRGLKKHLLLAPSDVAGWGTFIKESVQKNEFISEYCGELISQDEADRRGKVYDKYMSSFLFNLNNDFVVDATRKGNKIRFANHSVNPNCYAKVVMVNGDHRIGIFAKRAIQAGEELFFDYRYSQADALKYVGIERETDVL
# APP Aβ40 fibrils: Amyloid-beta precursor protein, Aβ40 fibrils (APP, Homo sapiens, UniProt P05067)
# PTR2: Peptide transporter PTR2 (PTR2, Saccharomyces cerevisiae, UniProt P32901)
# Sequence of UniProt P32901 (whole entry, looked up): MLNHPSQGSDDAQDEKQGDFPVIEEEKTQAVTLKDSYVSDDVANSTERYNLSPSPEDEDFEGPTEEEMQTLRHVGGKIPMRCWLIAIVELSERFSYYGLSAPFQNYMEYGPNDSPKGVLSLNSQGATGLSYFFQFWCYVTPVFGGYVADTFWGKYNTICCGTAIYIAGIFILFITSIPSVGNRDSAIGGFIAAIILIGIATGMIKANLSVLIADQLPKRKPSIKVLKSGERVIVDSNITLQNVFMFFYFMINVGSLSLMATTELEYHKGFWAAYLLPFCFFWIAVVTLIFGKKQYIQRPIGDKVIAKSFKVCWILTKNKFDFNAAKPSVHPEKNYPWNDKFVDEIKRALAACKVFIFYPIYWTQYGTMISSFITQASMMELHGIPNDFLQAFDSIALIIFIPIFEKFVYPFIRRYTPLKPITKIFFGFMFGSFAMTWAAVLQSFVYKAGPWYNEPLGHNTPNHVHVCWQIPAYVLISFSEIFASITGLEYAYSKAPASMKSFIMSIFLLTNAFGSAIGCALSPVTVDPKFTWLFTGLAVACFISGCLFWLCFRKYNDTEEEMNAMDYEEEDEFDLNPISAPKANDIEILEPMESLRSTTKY
# Sequence of UniProt P46098 (whole entry, looked up): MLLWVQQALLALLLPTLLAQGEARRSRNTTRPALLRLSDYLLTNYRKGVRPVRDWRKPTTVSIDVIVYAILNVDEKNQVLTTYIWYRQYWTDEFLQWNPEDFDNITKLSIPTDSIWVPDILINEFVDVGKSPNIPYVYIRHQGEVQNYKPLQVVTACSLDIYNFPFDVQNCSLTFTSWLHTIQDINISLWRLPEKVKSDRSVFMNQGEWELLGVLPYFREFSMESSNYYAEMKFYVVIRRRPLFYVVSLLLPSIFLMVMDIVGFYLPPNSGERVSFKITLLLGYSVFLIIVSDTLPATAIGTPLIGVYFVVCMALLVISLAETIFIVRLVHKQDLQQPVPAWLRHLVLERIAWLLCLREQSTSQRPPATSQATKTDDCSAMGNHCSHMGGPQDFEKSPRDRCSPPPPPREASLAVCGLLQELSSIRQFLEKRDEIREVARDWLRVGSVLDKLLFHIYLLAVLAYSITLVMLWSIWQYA
# Sequence of UniProt O15244 (whole entry, looked up): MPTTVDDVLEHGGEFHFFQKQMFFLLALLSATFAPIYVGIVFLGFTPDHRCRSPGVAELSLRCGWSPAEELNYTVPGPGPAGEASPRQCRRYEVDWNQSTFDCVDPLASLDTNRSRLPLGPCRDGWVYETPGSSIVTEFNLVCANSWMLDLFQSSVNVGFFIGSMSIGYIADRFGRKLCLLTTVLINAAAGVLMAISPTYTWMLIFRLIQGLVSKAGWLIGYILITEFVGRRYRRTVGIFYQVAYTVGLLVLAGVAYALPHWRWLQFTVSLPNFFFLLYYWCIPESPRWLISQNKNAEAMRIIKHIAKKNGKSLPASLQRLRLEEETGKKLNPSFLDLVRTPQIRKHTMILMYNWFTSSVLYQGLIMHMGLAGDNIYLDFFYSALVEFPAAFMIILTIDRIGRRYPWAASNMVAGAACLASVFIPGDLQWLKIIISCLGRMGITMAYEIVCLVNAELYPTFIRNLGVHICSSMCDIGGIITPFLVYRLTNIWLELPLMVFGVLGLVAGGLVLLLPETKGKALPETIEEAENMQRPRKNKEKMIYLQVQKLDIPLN
# Sequence of UniProt P54750 (whole entry, looked up): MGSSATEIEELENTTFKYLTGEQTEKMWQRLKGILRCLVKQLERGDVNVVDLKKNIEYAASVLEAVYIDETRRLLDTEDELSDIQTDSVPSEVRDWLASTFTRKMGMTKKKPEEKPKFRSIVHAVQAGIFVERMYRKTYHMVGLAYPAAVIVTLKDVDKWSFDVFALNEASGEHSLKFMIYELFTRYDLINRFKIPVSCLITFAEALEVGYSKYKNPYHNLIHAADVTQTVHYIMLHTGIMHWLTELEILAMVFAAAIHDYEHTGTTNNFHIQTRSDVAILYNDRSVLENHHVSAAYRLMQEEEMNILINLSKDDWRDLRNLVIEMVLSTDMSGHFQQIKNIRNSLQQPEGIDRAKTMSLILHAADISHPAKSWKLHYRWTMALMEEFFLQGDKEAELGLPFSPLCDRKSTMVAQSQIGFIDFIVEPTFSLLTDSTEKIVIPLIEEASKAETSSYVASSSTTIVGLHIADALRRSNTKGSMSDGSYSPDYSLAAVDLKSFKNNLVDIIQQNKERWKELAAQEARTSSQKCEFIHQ
# Sequence of UniProt O60701 (whole entry, unmodified, looked up): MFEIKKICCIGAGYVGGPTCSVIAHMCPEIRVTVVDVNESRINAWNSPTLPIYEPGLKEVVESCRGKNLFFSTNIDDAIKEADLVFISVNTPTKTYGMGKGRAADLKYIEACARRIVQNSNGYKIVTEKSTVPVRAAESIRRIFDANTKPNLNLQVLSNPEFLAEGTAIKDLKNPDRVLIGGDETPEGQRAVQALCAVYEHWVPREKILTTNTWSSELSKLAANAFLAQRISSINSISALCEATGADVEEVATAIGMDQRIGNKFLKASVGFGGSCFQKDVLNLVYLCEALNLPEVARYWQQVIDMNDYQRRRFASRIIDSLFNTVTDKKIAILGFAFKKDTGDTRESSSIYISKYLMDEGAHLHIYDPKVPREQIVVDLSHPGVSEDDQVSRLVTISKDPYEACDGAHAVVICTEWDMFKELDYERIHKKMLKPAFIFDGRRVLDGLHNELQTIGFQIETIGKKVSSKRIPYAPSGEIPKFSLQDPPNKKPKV
SMILES,tested on,test,test system,conditions,scale,endpoint,value
O=C(Cc1cccnc1)Nc1ccc(C2CCCCC2)cc1,,,cryopreserved mouse hepatocytes,1 µM,,hepatic clearance,65 mL/min/kg
CCCCCCCCCCCCCCCCCC(=O)O,Ppara F272I,,,,,Ki,15 ± 1 nM
CC(C)C[C@H](NC(=O)C[C@H](O)[C@H](CC(C)C)NC(=O)[C@H](Cc1c[nH]cn1)NC(=O)CNC(=O)[C@@H](NC(=O)[C@H](C)NC(=O)[C@H](Cc1c[nH]c2ccccc12)NC(=O)[C@H](CCC(N)=O)NC(=O)[C@@H](Cc1ccccc1)NC(=O)COCCOCCNC(=O)CCC(C(=O)O)N1CCN(CC(=O)O)CCN(CC(=O)O)CCN(CC(=O)O)CC1)C(C)C)C(N)=O (some centres unmarked) [lutetium-177 labelled],,,"BALB/c nu/nu mice, skin","intravenous, 50 pmol, 1 h, with: PA 300 µg",,tissue uptake,0.4 ± 0.1 %ID/g
COc1ccc(C(=O)Nc2ccc(N3CCCN(c4ccccn4)CC3)cn2)cc1,APP Aβ aggregates,"[3H]PiB competition binding, item: amyloid-beta",Alzheimer's disease brain homogenate,with: [3H]PiB,,Ki,> 1000 nM
NS(=O)(=O)c1cccc(-c2ccc(C3CCCCC3)cc2)c1,,hepatocyte stability,cryopreserved human hepatocytes,1 µM,,hepatic clearance,17 mL/min/kg
CC[C@H](C)n1cc(C)c2c(C(=O)NCc3c(C)cc(C)[nH]c3=O)cc(-c3ccc(N4CCNCC4)nc3)cc21,EZH1 in PRC2 complex,differential scanning fluorimetry,,"extrapolated from Tm, with: activator peptide",,Ki,33 nM
CCCCCCCCCCCCCCCCCC(=O)SCCNC(=O)CCNC(=O)[C@H](O)C(C)(C)COP(=O)(O)OP(=O)(O)OC[C@H]1O[C@@H](n2cnc3c(N)ncnc32)[C@H](O)[C@@H]1OP(=O)(O)O,Ppara F272I,,,,,Ki,19 ± 2 nM
O=c1c(O)c(-c2ccc(O)c(O)c2)oc2cc(O)cc(O)c12,"PSMB5, chymotrypsin-like activity (Oryctolagus cuniculus, UniProt G1T4Q9)","chymotrypsin-like proteasome activity, inhibitor",rabbit muscle proteasome,,,Ki,< 10000 nM
Cc1ccc([C@H]2C[C@@H]2COc2cc(NCc3nnc(C)s3)nc(C)n2)nc1,"PDE1A (Homo sapiens, UniProt P54750)","enzyme activity, inhibitor, IMAP fluorescence polarization",,with: cGMP,,Ki,> 58300 nM
CC[C@H]1OC(=O)C[C@@H](O)[C@H](C)[C@@H](O[C@@H]2O[C@H](C)[C@@H](O[C@H]3C[C@@](C)(O)[C@@H](O)[C@H](C)O3)[C@H](N(C)C)[C@H]2O)[C@@H](CC=O)C[C@@H](C)C(=O)/C=C/C(C)=C/[C@@H]1CO[C@@H]1O[C@H](C)[C@@H](O)[C@@H](OC)[C@H]1OC,"rplD/rplV (Escherichia coli, UniProt P60723+P61175)",ribosome binding,,,,Ki,2260 ± 300 nM
O=c1ccn([C@@H]2O[C@H](COP(=O)(O)OP(=O)(O)O[C@H]3OC[C@@H](O)[C@H](O)[C@H]3O)[C@@H](O)[C@H]2O)c(=O)[nH]1,"UGDH (Homo sapiens, UniProt O60701, A104L)","inhibitor, steady-state kinetics",,,,Ki,2300 ± 200 nM
CN/C(=N/CCSCc1nc[nH]c1C)NC#N,"SLC22A2 (Homo sapiens, UniProt O15244)",inhibitor,,,,Ki,26200 nM
COc1ccc(C(=O)Nc2ccc(N3CCC4(CC3)CCN(c3ccccn3)C4)cc2)cc1,APP Aβ aggregates,"[3H]PiB competition binding, item: amyloid-beta",Alzheimer's disease brain homogenate,with: [3H]PiB,,Ki,≥ 760 nM
F[C@@H]1CCN(c2ccc(-c3ccc4sc(-c5cccnc5)cc4n3)cn2)C1,APP Aβ aggregates,binding,Alzheimer's disease brain homogenate,with: [3H]PiB,,Ki,9600 ± 800 nM
CNC(=O)[C@@]12C[C@@H]1[C@@H](n1cnc3c(NC)nc(C#C[c-]4cccc4)nc31)[C@H](O)[C@@H]2O.[Fe+2].c1cc[cH-]c1,"HTR3A (Homo sapiens, UniProt P46098)",radioligand binding (PDSP),,,,Ki,2620 nM
Oc1ccc(N=Nc2ccc(-c3nc4ccccc4s3)cc2)cc1CN(Cc1ccccc1)Cc1ccccn1,APP Aβ40 fibrils,"binding to Aβ fibrils, thioflavin T competition",,"Aβ 5 µM, with: ThT 2 µM",,Ki,1500 nM
C[C@H](N)C(=O)N[C@@H](Cc1c[nH]c2ccccc12)C(=O)O,PTR2,,,,,Ki,39000 nM
CCCCCCCCCCCCCCCC(=O)SCCNC(=O)CCNC(=O)[C@H](O)C(C)(C)COP(=O)(O)OP(=O)(O)OC[C@H]1O[C@@H](n2cnc3c(N)ncnc32)[C@H](O)[C@@H]1OP(=O)(O)O,Ppara F272I,,,,,Ki,18 ± 2 nM
Cn1cc(-c2ccc(-c3cncc(Cl)c3N3CCC4(CCNC4=O)CC3)cc2)cn1,COLO 205,"gene expression, microarray, item: RPSA mRNA",,"concentration not given, 6 h",relative to: untreated cells,log2 fold change,-2.58
NCc1ccc(-c2nc3ccccc3s2)cc1,APP Aβ40 fibrils,"amyloid-beta fibril binding, ThT fluorescence competition",,with: thioflavin T,,Ki,5 nM
COc1cc(C)[nH]c(=O)c1CN1CCc2c(Cl)cc([C@H](OC)C3COC3)c(Cl)c2C1=O,EZH1 in PRC2 complex,differential scanning fluorimetry,,"extrapolated from Tm, with: activator peptide",,Ki,2.7 nM
COc1ccc(C(=O)Nc2ccc(N3C4CCC3CN(c3ccccn3)C4)cc2)cc1,APP Aβ aggregates,"[3H]PiB competition binding, item: amyloid-beta",Alzheimer's disease brain homogenate,with: [3H]PiB,,Ki,> 1000 nM
CCC(=O)O[C@@H](O[P@](=O)(CCCCc1ccccc1)CC(=O)N1C[C@H](C2CCCCC2)C[C@H]1C(=O)O)C(C)C,PTR2,"competitive uptake, fluorescence",Saccharomyces cerevisiae expressing PTR2,,,Ki,> 770000 nM

# Repeated from above:
SMILES,tested on,test,test system,conditions,scale,endpoint,value
CC(C)C[C@H](NC(=O)C[C@H](O)[C@H](CC(C)C)NC(=O)[C@H](Cc1c[nH]cn1)NC(=O)CNC(=O)[C@@H](NC(=O)[C@H](C)NC(=O)[C@H](Cc1c[nH]c2ccccc12)NC(=O)[C@H](CCC(N)=O)NC(=O)[C@@H](Cc1ccccc1)NC(=O)COCCOCCNC(=O)CCC(C(=O)O)N1CCN(CC(=O)O)CCN(CC(=O)O)CCN(CC(=O)O)CC1)C(C)C)C(N)=O (some centres unmarked) [lutetium-177 labelled],,,"BALB/c nu/nu mice, skin","intravenous, 50 pmol, 1 h, with: PA 300 µg",,tissue uptake,0.4 ± 0.1 %ID/g
COc1ccc(C(=O)Nc2ccc(N3CCCN(c4ccccn4)CC3)cn2)cc1,APP Aβ aggregates,"[3H]PiB competition binding, item: amyloid-beta",Alzheimer's disease brain homogenate,with: [3H]PiB,,Ki,> 1000 nM
